Published values collected from several papers.
Numbered parts are unrelated; each lists some results of a single study.
Sequence of UniProt P42336 (whole entry, unmodified, looked up): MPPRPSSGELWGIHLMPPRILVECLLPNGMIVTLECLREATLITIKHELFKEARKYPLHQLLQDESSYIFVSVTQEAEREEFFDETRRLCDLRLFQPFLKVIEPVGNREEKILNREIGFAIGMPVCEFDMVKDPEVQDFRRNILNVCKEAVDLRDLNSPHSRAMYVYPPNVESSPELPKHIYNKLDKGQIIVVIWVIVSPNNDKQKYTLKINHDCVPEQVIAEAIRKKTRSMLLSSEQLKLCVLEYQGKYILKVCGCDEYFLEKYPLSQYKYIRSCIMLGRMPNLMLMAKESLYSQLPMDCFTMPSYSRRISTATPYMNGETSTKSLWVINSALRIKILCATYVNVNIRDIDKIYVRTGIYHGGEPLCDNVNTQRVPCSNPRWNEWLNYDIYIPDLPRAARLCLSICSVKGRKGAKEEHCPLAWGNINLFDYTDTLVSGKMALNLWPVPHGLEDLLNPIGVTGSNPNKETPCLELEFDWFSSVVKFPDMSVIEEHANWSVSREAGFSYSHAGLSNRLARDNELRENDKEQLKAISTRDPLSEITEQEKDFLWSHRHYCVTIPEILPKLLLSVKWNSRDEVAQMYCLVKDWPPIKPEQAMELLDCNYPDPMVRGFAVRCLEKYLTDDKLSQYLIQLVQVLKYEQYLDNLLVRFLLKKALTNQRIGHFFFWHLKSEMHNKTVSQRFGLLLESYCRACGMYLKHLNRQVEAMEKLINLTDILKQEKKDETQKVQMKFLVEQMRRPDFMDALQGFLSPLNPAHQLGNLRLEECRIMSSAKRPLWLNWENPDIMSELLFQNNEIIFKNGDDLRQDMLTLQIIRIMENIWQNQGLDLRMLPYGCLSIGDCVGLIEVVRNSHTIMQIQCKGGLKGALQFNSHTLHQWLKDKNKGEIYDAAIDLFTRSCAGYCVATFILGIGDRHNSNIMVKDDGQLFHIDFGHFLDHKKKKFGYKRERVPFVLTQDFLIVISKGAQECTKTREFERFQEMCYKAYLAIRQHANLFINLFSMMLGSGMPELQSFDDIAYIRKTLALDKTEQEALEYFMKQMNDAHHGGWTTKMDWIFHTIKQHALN
Sequence of UniProt Q8IYT8 (whole entry, looked up): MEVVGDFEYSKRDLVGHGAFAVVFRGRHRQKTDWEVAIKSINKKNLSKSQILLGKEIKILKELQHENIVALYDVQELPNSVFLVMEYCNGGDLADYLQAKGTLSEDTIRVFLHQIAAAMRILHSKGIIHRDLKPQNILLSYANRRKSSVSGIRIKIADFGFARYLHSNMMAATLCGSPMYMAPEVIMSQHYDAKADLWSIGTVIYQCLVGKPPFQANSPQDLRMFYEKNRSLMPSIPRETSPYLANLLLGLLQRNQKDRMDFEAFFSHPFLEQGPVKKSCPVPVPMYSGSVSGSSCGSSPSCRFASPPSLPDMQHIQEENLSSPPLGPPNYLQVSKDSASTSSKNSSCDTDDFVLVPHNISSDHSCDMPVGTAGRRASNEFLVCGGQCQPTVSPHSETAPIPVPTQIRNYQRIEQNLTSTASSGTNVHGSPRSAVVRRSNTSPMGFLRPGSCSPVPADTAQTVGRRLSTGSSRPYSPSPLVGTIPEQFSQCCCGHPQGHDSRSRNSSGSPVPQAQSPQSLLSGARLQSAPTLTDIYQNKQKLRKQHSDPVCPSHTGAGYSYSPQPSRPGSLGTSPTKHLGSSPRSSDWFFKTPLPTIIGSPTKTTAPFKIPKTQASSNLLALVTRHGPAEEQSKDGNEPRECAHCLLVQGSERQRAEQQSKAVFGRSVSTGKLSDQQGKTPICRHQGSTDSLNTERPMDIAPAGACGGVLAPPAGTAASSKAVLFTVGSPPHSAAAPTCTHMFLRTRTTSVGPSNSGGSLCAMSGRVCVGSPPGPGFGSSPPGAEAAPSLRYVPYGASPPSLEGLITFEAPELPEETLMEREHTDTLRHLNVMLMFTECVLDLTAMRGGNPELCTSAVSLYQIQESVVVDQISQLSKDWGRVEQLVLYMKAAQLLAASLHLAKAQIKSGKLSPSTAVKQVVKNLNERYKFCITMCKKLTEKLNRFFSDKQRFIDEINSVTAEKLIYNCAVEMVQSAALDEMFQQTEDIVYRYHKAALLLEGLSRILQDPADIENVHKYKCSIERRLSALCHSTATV
Sequence of UniProt P37023 (whole entry, looked up): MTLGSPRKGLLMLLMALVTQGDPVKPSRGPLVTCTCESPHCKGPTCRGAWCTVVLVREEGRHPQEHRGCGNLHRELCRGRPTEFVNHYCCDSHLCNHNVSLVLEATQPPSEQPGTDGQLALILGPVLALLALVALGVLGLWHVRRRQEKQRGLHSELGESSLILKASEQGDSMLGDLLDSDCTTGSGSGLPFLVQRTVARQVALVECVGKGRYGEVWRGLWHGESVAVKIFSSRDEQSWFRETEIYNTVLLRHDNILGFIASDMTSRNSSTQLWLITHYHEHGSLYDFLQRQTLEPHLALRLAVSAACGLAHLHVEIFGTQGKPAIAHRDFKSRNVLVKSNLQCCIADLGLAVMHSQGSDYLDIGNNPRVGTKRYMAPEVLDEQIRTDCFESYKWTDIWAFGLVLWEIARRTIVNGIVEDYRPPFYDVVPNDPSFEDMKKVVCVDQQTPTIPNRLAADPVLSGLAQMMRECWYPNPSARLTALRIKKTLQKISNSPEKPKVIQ
Sequence of UniProt Q8NI60 (whole entry, looked up): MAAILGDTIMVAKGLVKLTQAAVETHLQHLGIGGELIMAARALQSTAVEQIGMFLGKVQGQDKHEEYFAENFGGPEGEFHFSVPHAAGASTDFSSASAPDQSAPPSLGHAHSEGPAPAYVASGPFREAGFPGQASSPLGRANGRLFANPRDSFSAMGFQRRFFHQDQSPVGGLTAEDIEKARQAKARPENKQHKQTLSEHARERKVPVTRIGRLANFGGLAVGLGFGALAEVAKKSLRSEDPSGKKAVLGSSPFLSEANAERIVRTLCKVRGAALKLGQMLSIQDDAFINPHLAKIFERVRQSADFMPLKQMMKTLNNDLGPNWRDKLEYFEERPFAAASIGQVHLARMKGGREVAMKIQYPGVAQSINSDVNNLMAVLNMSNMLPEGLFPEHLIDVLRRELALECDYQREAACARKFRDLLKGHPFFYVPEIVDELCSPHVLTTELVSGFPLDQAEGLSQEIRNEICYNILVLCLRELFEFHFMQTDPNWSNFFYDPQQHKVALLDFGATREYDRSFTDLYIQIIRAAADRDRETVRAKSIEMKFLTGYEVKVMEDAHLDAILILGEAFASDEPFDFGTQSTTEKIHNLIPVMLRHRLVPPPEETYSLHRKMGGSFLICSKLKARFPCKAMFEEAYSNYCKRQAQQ
Sequence of UniProt P54764 (whole entry, looked up): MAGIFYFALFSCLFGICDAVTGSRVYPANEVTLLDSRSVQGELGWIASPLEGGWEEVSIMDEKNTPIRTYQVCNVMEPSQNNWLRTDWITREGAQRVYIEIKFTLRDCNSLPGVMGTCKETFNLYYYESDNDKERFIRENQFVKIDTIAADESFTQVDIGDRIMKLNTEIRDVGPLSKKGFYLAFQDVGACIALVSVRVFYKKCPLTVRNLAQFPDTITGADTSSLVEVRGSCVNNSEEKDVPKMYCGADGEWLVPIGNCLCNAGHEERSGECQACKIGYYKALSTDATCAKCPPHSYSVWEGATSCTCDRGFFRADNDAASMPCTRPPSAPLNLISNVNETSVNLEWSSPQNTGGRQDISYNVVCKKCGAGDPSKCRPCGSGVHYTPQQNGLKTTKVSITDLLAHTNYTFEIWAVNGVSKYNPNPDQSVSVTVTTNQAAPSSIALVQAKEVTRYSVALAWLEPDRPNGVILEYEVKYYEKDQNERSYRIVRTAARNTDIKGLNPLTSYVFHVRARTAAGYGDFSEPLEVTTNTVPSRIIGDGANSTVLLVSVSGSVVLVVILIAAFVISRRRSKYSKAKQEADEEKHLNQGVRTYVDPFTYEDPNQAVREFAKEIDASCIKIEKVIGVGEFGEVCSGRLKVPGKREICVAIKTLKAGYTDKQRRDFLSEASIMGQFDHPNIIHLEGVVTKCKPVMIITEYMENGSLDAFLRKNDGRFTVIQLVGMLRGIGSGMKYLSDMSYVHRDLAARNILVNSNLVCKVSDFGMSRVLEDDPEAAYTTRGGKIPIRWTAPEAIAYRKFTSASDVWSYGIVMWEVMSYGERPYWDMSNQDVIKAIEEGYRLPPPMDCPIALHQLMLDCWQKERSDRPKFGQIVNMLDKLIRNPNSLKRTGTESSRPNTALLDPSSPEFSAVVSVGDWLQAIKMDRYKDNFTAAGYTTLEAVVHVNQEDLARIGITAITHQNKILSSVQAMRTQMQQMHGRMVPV
Sequence of UniProt P09769 (whole entry, looked up): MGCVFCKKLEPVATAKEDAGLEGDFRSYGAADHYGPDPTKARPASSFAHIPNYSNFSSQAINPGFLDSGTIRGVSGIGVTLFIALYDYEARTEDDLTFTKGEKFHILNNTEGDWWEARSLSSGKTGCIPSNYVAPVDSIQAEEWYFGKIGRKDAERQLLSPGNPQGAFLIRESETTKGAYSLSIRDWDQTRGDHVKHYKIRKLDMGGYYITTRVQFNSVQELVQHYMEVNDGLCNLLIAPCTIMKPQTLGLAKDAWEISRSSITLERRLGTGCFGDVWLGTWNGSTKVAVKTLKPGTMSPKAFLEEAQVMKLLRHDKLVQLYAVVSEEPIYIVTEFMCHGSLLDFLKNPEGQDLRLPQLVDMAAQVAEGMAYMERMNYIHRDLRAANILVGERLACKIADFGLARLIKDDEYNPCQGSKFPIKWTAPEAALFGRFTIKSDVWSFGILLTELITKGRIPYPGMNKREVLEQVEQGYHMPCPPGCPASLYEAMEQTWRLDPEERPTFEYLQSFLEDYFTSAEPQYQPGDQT

Series 1 — organism: Plasmodium berghei; action: inhibitor; cells: Huh-7; strain: GFP-expressing sporozoites, liver stage; concentration: 10 µM; time: 24 h; relative to: untreated control; measurement: infection rate
CC(=O)N[C@@H](CS)C(=O)O: 108%
CCn1nc(C(=O)O)c(=O)c2cc3c(cc21)OCO3: 113%
O=C1c2c(O)cccc2Cc2cccc(O)c21: 122%
CN(C)c1nc(N(C)C)nc(N(C)C)n1: 129%
CCCCCCCCCCOc1cc2c(O)c(C(=O)OCC)cnc2cc1OCC: 11.8%
C=CC1=C(C(=O)O)N2C(=O)[C@@H](NC(=O)/C(=N\O)c3csc(N)n3)[C@H]2SC1: 92.8%
Nc1nc(/C(=C/CC(=O)O)C(=O)N[C@@H]2C(=O)N3C(C(=O)O)=CCS[C@H]23)cs1: 107%
O=C(O)CN1C(=O)c2cccc3cccc(c23)C1=O: 111%
COc1ccc(C(=O)c2ccccc2O)c(O)c1: 97.8%
CC(C)(C)c1ccc(C(O)CCCN2CCC(C(O)(c3ccccc3)c3ccccc3)CC2)cc1 (stereo not shown): 4.89%
N[C@@H]1CONC1=O: 113%
COc1cc(OC)c2c(c1)OC(c1ccccc1)CC2=O (stereo not shown): 106%
C[C@]12CC[C@@H]3c4ccc(OC(=O)c5ccccc5)cc4CC[C@H]3[C@@H]1CC[C@@H]2O: 119%
C/C=C/c1ccc(OC)cc1: 103%
C[C@]12CC[C@@H]3c4ccc(O)cc4CC[C@H]3[C@@H]1CC[C@@H]2O: 108%

Series 2 — cell line: HaCaT; concentration: 100 µM; time: 36 h; measurement: viability
Clc1ccccc1CN1CCc2sccc2C1: 85.5%
CCN1CCCC1CNC(=O)c1cc(S(=O)(=O)CC)c(N)cc1OC (stereo not shown): 95.7%
CC(/C=C/C=C(\C)C(=O)O[C@@H]1O[C@H](CO[C@@H]2O[C@H](CO)[C@@H](O)[C@H](O)[C@H]2O)[C@@H](O)[C@H](O)[C@H]1O)=C\C=C\C=C(C)\C=C\C=C(/C)C(=O)O[C@@H]1O[C@H](CO[C@@H]2O[C@H](CO)[C@@H](O)[C@H](O)[C@H]2O)[C@@H](O)[C@H](O)[C@H]1O: 122%
CCCCC1C(=O)N(c2ccccc2)N(c2ccccc2)C1=O: 97.4%
N#Cc1ccc(C(c2ccc(C#N)cc2)n2cncn2)cc1: 87.4%
CC(=O)OCC(=O)[C@@]1(O)CC[C@H]2[C@@H]3CCC4=CC(=O)CC[C@]4(C)[C@@]3(F)[C@@H](O)C[C@@]21C: 93%
CC(C)C(=O)c1c(C(C)C)nn2ccccc12: 74%
CN(C)CCCOc1nn(Cc2ccccc2)c2ccccc12: 5.1%
CC(=O)Oc1cc2c(s1)CCN(C(C(=O)C1CC1)c1ccccc1F)C2 (stereo not shown): 98%
O=C(O)c1ccc(S(=O)(=O)N(Cl)Cl)cc1: 84.3%
CC(C)OC(=O)CCC/C=C\C[C@@H]1[C@@H](CC[C@@H](O)CCc2ccccc2)[C@H](O)C[C@@H]1O: 6.61%

Series 3 — method: competition with immobilised ligand; concentration: 1 µM; measurement: remaining binding
Compound: O=C(Nc1cnc(Oc2ccc(F)cc2)nc1)N1CCc2ncccc2[C@@H]1c1ccc(F)cc1
STE20-like serine/threonine-protein kinase (SLK, Homo sapiens, UniProt Q9H2G2); cell-free assay: 82%
Tyrosine-protein kinase ABL1, non-phosphorylated (ABL1, Homo sapiens, UniProt P00519, F317I); binding: 99%
Serine/threonine-protein kinase ULK1 (ULK1, Homo sapiens, UniProt O75385); cell-free assay: 88%
Receptor-type tyrosine-protein kinase FLT3 (FLT3, Homo sapiens, UniProt P36888, F691L/ITD); cell-free assay: 79%
Serine/threonine-protein kinase Nek2 (NEK2, Homo sapiens, UniProt P51955); cell-free assay: 92%
Transient receptor potential cation channel subfamily M member 6 (TRPM6, Homo sapiens, UniProt Q9BX84); cell-free assay: 100%
Serine/threonine-protein kinase Chk2 (CHEK2, Homo sapiens, UniProt O96017); cell-free assay: 92%
Tyrosine-protein kinase ABL1, phosphorylated (ABL1, Homo sapiens, UniProt P00519, H396P); cell-free assay: 100%
Cyclin-dependent kinase-like 3 (CDKL3, Homo sapiens, UniProt Q8IVW4); cell-free assay: 77%
Eukaryotic translation initiation factor 2-alpha kinase 1 (EIF2AK1, Homo sapiens, UniProt Q9BQI3); cell-free assay: 100%
Calcium/calmodulin-dependent protein kinase type II subunit gamma (CAMK2G, Homo sapiens, UniProt Q13555); cell-free assay: 80%
NT-3 growth factor receptor (NTRK3, Homo sapiens, UniProt Q16288); cell-free assay: 75%
Atypical kinase COQ8A, mitochondrial (COQ8A, Homo sapiens, UniProt Q8NI60); cell-free assay: 95%
Serine/threonine-protein kinase ULK2 (ULK2, Homo sapiens, UniProt Q8IYT8); cell-free assay: 93%
Ephrin type-A receptor 4 (EPHA4, Homo sapiens, UniProt P54764); cell-free assay: 88%
Activin receptor type-1-like (ACVRL1, Homo sapiens, UniProt P37023); cell-free assay: 99%
Rhodopsin kinase GRK1 (GRK1, Homo sapiens, UniProt Q15835); cell-free assay: 91%
Cyclin-dependent kinase 18 (CDK18, Homo sapiens, UniProt Q07002); cell-free assay: 96%
Serine/threonine-protein kinase MARK1 (MARK1, Homo sapiens, UniProt Q9P0L2); cell-free assay: 71%
Platelet-derived growth factor receptor alpha (PDGFRA, Homo sapiens, UniProt P16234); cell-free assay: 93%
Tyrosine-protein kinase Fgr (FGR, Homo sapiens, UniProt P09769); cell-free assay: 100%
Insulin receptor (INSR, Homo sapiens, UniProt P06213); cell-free assay: 81%
Phosphatidylinositol 4,5-bisphosphate 3-kinase catalytic subunit alpha isoform (PIK3CA, Homo sapiens, UniProt P42336, M1043I); cell-free assay: 100%
Phosphatidylinositol 4,5-bisphosphate 3-kinase catalytic subunit alpha isoform (PIK3CA, Homo sapiens, UniProt P42336, I800L); cell-free assay: 69%
Mast/stem cell growth factor receptor Kit, autoinhibited (KIT, Homo sapiens, UniProt P10721); cell-free assay: 81%

Series 4 — read-out: enzyme activity; action: inhibitor; concentration: 0.5 µM; relative to: control; measurement: remaining activity
Target: Serine/threonine-protein kinase TAO1 (TAOK1, Homo sapiens, UniProt Q7L7X3)
Construct (Q7L7X3 1-1001): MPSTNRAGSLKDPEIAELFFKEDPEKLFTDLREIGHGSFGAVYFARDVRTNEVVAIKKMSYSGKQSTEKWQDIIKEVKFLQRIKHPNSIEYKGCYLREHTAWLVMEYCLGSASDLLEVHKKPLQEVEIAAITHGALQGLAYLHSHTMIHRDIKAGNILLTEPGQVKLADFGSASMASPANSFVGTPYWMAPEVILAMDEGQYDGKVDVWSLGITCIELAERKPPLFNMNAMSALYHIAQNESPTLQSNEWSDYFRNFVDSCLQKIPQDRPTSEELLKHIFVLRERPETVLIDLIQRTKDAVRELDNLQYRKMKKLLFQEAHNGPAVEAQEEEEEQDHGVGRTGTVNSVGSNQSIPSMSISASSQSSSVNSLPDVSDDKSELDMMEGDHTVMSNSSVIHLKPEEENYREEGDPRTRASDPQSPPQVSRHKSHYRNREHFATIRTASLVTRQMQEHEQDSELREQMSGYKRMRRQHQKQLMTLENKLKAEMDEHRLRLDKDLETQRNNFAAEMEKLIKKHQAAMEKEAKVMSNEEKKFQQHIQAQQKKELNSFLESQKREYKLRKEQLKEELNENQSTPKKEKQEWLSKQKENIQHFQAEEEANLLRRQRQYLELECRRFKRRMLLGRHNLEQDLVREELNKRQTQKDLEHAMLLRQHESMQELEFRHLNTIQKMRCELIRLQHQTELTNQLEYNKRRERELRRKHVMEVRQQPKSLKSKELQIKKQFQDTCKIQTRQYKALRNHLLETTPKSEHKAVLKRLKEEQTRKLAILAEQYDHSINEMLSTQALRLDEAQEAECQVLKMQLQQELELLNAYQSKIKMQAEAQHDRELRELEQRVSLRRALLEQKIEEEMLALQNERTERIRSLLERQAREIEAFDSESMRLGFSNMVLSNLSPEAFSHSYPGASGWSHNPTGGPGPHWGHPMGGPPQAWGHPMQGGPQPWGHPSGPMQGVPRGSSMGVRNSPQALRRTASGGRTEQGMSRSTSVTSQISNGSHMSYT
Nc1nccc(-c2c(-c3ccc(F)cc3)ncn2C2CCNCC2)n1: 92.7%
COc1ccc(S(=O)(=O)N(CCO)c2ccccc2CN(C)CC=Cc2ccc(Cl)cc2)cc1: 103%
Cc1ccc(NC2=CC(=O)c3sc(C)nc3C2=O)cc1: 99.8%
Cc1cc(Nc2nc(-c3ccccc3)nc3ccccc23)n[nH]1: 115%
N#CC(=C(N)Sc1ccc(N)cc1)c1ccccc1C(F)(F)F: 98.3%
O=C1NC(=O)C(c2c[nH]c3ccccc23)=C1c1c[nH]c2ccccc12: 93.7%
Nc1ncnc2c1cnn2-c1ccccc1: 89.5%
NC(=O)c1ccc(N(C(N)=O)c2c(F)cccc2F)nc1-c1ccc(F)cc1F: 96.2%
Cc1cncc2cccc(S(=O)(=O)N3CCCN(C(=O)CN)C[C@@H]3C)c12: 84.2%
Fc1ccc(-c2nc3n(c2-c2ccncc2)CCS3)cc1: 97.7%
COc1cc(Nc2c(C#N)cnc3cc(OCCCN4CCN(C)CC4)c(OC)cc23)c(Cl)cc1Cl: 52.8%
CC(C)(C)n1nc(Cc2cccc3ccccc23)c2c(N)ncnc21: 86.4%
CCc1[nH]c(-c2ccc(OC)cc2)nc1-c1ccncc1: 104%
CC#CC(=O)Nc1cc2c(Nc3ccc(F)c(Cl)c3)ncnc2cn1: 104%
O=S(=O)(NCCNC/C=C/c1ccc(Br)cc1)c1cccc2cnccc12: 101%
O=C1Cc2c([nH]c3ccc([N+](=O)[O-])cc23)-c2ccccc2N1: 66.9%
CSc1nc(-c2ccnc(N[C@@H](C)c3ccccc3)c2)c(-c2ccc(F)cc2)[nH]1 (racemic): 79.9%
Nc1nc(Nc2ccc(S(N)(=O)=O)cc2)nn1C(=O)c1c(F)cccc1F: 18.8%
CC(=O)c1ccc(N2CCOCC2)cc1O: 99.4%
CCCC(=O)Oc1ccc2[nH]c(C(=O)c3cc4ccccc4[nH]3)cc2c1: 82.8%
Oc1ccc(Nc2nc(-c3ccc(Cl)cc3)cs2)cc1: 97.1%
CC[n+]1c(/C=C/N(C)c2ccccc2)n(-c2ccccc2)c2ccc(-c3nc4ccccc4s3)cc21: 99.4%

Repeated from above (series 2):
CCN1CCCC1CNC(=O)c1cc(S(=O)(=O)CC)c(N)cc1OC (stereo not shown): 95.7%
CC(/C=C/C=C(\C)C(=O)O[C@@H]1O[C@H](CO[C@@H]2O[C@H](CO)[C@@H](O)[C@H](O)[C@H]2O)[C@@H](O)[C@H](O)[C@H]1O)=C\C=C\C=C(C)\C=C\C=C(/C)C(=O)O[C@@H]1O[C@H](CO[C@@H]2O[C@H](CO)[C@@H](O)[C@H](O)[C@H]2O)[C@@H](O)[C@H](O)[C@H]1O: 122%
CCCCC1C(=O)N(c2ccccc2)N(c2ccccc2)C1=O: 97.4%
N#Cc1ccc(C(c2ccc(C#N)cc2)n2cncn2)cc1: 87.4%
CC(=O)OCC(=O)[C@@]1(O)CC[C@H]2[C@@H]3CCC4=CC(=O)CC[C@]4(C)[C@@]3(F)[C@@H](O)C[C@@]21C: 93%
CC(C)C(=O)c1c(C(C)C)nn2ccccc12: 74%
CN(C)CCCOc1nn(Cc2ccccc2)c2ccccc12: 5.1%
CC(=O)Oc1cc2c(s1)CCN(C(C(=O)C1CC1)c1ccccc1F)C2 (stereo not shown): 98%
O=C(O)c1ccc(S(=O)(=O)N(Cl)Cl)cc1: 84.3%
CC(C)OC(=O)CCC/C=C\C[C@@H]1[C@@H](CC[C@@H](O)CCc2ccccc2)[C@H](O)C[C@@H]1O: 6.61%
